Results pooled from the literature.
Protocols differ between the studies behind these lines. ± gives the spread as reported. Values after ≈ are worked out from the molar mass of the structure shown.

For `CCC/C(=C\C1=C(C(F)(F)F)C(=O)c2ccccc2C1=O)C(=O)N(CC)CC`, the thermodynamic solubility was 9 µg/mL (≈ 22.9 µM) (aqueous buffer; pH 6.8).
Under “second excitation maximum”, `NCCC(=O)N1Cc2ccccc2-c2c(nnn2-c2nc3c(N)ncnc3n2C2OC(CO)C(O)C2O)-c2ccccc21` (mixture of isomers) is recorded as 360 nm (methanol; red edge of spectrum).
With `O=C(CCCCC[N+]#[C][99Tc-5]([C]#[N+]CCCCCC(=O)N[C@H]1C(O)O[C@H](CO)[C@@H](O)[C@@H]1O)([C]#[N+]CCCCCC(=O)N[C@H]1C(O)O[C@H](CO)[C@@H](O)[C@@H]1O)([C]#[N+]CCCCCC(=O)N[C@H]1C(O)O[C@H](CO)[C@@H](O)[C@@H]1O)([C]#[N+]CCCCCC(=O)N[C@H]1C(O)O[C@H](CO)[C@@H](O)[C@@H]1O)[C]#[N+]CCCCCC(=O)N[C@H]1C(O)O[C@H](CO)[C@@H](O)[C@@H]1O)N[C@H]1C(O)O[C@H](CO)[C@@H](O)[C@@H]1O` (stereo partly shown) the blood uptake was 0.33 ± 0.06 %ID/g (healthy CD-1 mouse, blood; 60 min).
For `C#CCNC(=O)C(CC(C)(C)F)NC(c1ccc(-c2ccc(S(C)(=O)=O)cc2)cc1)C(F)(F)F` (stereo not shown), “GSH adduct formation” read under 1% (LC-MS UV trace; aqueous buffer; 23 h, pH 7.5, 37 °C, added: GSH 5 mM).
Under “breakdown rate ratio”, `C[C@H](NC(=O)[C@H](CCCNC(=N)N)N(C)C(=O)[C@@H]1CCCN1C(=O)[C@H](CCCNC(=N)N)NC(=O)CNC(=O)c1ccc2c(c1)C1(OC2=O)c2ccc(O)cc2Oc2cc(O)ccc21)C(=O)N[C@@H](Cc1ccccc1)C(=O)N[C@H](C(=O)N[C@@H](Cc1ccccc1)C(=O)N(C)[C@@H](C)C(N)=O)[C@@H](C)O` is recorded as over 5 (cytosolic lysate; relative to: LNCaP over HeLa lysate).
`CCCC[C@@H]1NC(=O)[C@@H](NC(=O)[C@H](CCC(=O)O)NC(=O)CNC(=O)CN2CCN(CC(=O)O)CCN(CC(=O)O)CCN(CC(=O)O)CC2)CCCCNC(=O)C[C@@H](C(N)=O)NC(=O)[C@H](C(C)C)NC(=O)[C@@H]2CCCN2C(=O)[C@H](CCCNC(=N)N)NC(=O)CNC(=O)[C@H](Cc2c[nH]c3ccccc23)NC(=O)[C@H](CCCNC(=N)N)NC(=O)[C@@H](Cc2ccccc2)NC(=O)[C@H](Cc2c[nH]cn2)NC(=O)[C@H](CCC(=O)O)NC1=O` [gallium-67 labelled]: “tumour to muscle ratio” 18.7 (C57 mice with B16/F1 melanoma; intravenous, 0.037 MBq/mouse, 0.5 h; relative to: tumour over muscle).
`CCc1cc(C)nc2c(CC(=O)N(CC)CC)c(-c3ccc(OCC[18F])cc3)nn12` — result for “parent radioligand in plasma”: 64.8% (rat, plasma; 60 min).
Under “duration of quantifiable plasma levels”, `Cc1ccccc1-c1cc(N2CCNCC2)ncc1N(C)C(=O)C(C)(C)c1cc(C(F)(F)F)cc(C(F)(F)F)c1` is recorded as 10 days (human, plasma; dose not given).
The remaining compound of `Cc1ccc(OCC(=O)N(Cc2cccs2)c2ccn[nH]2)cc1` is reported as about 1% (Sprague-Dawley rat, liver microsomes; 10 µM, 60 min, added: NADPH).
For `CC#N.[Ru+2].c1ccc(-c2cccc(-c3ccccn3)n2)nc1.c1ccc(-c2ccccn2)nc1`, “photosubstitution quantum yield” read 0.0125 (water; 470 nm light).
The epimerisation of `CC[C@H](C)[C@H](N)C1=N[C@H](C(=O)N[C@@H](CC(C)C)C(=O)N[C@H](CCC(=O)O)C(=O)N[C@H](C(=O)N[C@H]2CCCCNC(=O)[C@H](CC(N)=O)NC(=O)[C@@H](CC(=O)O)NC(=O)[C@H](Cc3c[nH]cn3)NC(=O)[C@@H](Cc3ccccc3)NC(=O)[C@H]([C@@H](C)CC)NC(=O)[C@@H](CCCN)NC2=O)[C@@H](C)CC)CS1` is reported as over 15% (TFA/TIPS/water; 30 min).
Under “subjects with TEAE”, `Cn1c(=O)oc2ccc(-c3ccc(CC(C#N)NC(=O)C4CNCCCO4)c(F)c3)cc21` (stereo not shown) is recorded as 0% (measured: monocyte count increased; human; 60 mg single dose, fasted).
Under chemical stability, `O=[N+]([O-])[O-].[NH3+][Pt-2]1([NH3+])[O]C(c2ccccc2)=CC(c2ccccc2)=[O+]1` (stereo not shown) is recorded as “no effect” (1H NMR; water; up to 25 d, 37 °C).
For `COC(=O)C1OC(Oc2c(-c3ccccc3)oc3cc(O)c(O)c(O)c3c2=O)C(O)C(O)C1O` (stereo not shown), the organ weight was 1.37 ± 0.5 g (BALB/c mouse, kidney; 2 mg/kg).
`CC(C)(C)NCC(SS(=O)(=O)O)c1ccccc1` (stereo not shown) has an intrinsic clearance of 0.333 µL/min/mg (mouse liver microsomes; glucuronidation).
For `CC(C)(O)c1ncc([S@](N)(=O)=NC(=O)Nc2c3c(cc4c2CCC4)CCC3)s1`, the Tmax was 3 h (human, plasma; oral, 30 mg, single dose, fasted, healthy volunteers).
`CCCC(CCC)NC(=O)c1ccc(O)c(O)c1` gave an AUC(0-last) ratio of 43.7 (female Sprague-Dawley rats, plasma; oral, 200 mg/kg of parent drug; relative to: 200 over 20 mg/kg dose).
For `C[Si]1(C[C@H](CN)CC(=O)O)CCCC1`, the performance time was 180 s (neuromuscular coordination; Wistar rat male; oral, 30 mg/kg, 1 h).
`Cc1ccc(/N=N/c2c(O)ccc3ccccc23)c(C)c1` — result for “freeze-thaw stability deviation”: -0.3% (rat whole blood; 16.0 µg/L, freeze-thaw cycle 1).
`CC(C)CCCC(C)CCCC(C)CCO[C@@H]1O[C@H](CO)[C@@H](O[C@H]2O[C@H](CO)[C@@H](O)[C@H](O)[C@H]2O)[C@H](O)[C@H]1O` (stereo partly shown) — result for “surface tension at induction time”: 66.4 mN/m (dynamic surface tension; 0.0018 mmol/L).
`COc1ccc2cc(-c3ccc(-c4ccc(C)cn4)nc3)oc2c1`: “radiative decay rate constant” 0.75 ns⁻¹ (TCSPC; hexanes).
`Cc1cc2c(cc1C1(c3ncc(C(=O)O)cn3)CC1)C(C)(C)CCC2(C)C` has an LDL level of 4 ± 1.2 mg/dL (Sprague-Dawley rat, male, plasma; oral, 100 mg/kg, 24 h, sesame oil vehicle).
Under “liver kidney spleen histopathology”, `CN(C)S(=O)(=O)c1cc(C(=O)O)ccc1NCCCCCCCC(F)(F)F` is recorded as “no effect” (WT and Ts65Dn mice; ip, 0.2 mg/kg daily, 4 weeks).
For `C=C(c1cc(F)c(C(=O)O)c(F)c1)c1cc2c(cc1C)C(C)(C)CCC2(C)C`, the LDL level was 3 mg/dL (Sprague-Dawley rat, male, plasma; oral, 100 mg/kg, 24 h, sesame oil vehicle).
`CO[C@@H]1[C@H](OC(=O)N[C@H]2CC[C@H](N)CC2)CC[C@]2(CO2)[C@H]1[C@@]1(C)O[C@@H]1CC=C(C)C` gave a half-life ratio of 4 fold (Sprague-Dawley rat, male, plasma; iv bolus, dose not given; relative to: compound over TNP-470).
`CCCCCCCCCCCCCCCC(=O)N[C@@H](CCCCN)C(=O)N[C@H](C(=O)N[C@H](C(=O)N[C@@H](CCCCN)C(=O)N[C@@H](CO)C(=O)O)[C@@H](C)O)[C@@H](C)O`: “percent of applied dose in epidermis” 5.6% (hairless mouse, skin, Franz cell; 50 µg/cm^2 applied, 24 h).
With `CC(C)[C@H](NC(=O)CNC(=O)[C@H](CCC(N)=O)NC(=O)[C@H](C)N)C(=O)O` the half-life was under 1 h (human; across phase I studies).
`COc1cc2c(cc1OC)CN(CCCCn1ccc3cc(OCC[18F])ccc31)C2` gave a heart uptake of 2.31 ± 0.16 %ID/g (male ICR mice; intravenous, 120 min post-injection).
For `CCCCCCCCCCCCCCCC(=O)NCCOCCOCCOCCOCCOCCOCCOCCOCCC(=O)NCCCC[C@H](NC(=O)CNC(=O)[C@@H]1CSSC[C@H](N)C(=O)N[C@@H](Cc2ccc(O)cc2)C(=O)N[C@@H]([C@@H](C)CC)C(=O)N[C@@H](CCC(N)=O)C(=O)N[C@@H](CC(N)=O)C(=O)N1)C(=O)NCC(N)=O`, “duration of sustained plasma level” read over 20 h (mouse; subcutaneous depot, dose not given).
`COC(=O)CN1CCN(CC(=O)OC)CCN(Cc2cc(-c3nc4ccccc4s3)cc(OC)c2O)CC1` gave a pKa1 of 4.21 (UV-Vis pH titration; 25 °C, ionic strength 0.1 M NaCl).
`O=C(C1CC1)N1CCC=C(c2cc3c(Nc4cc5ncsc5cc4F)ncnc3s2)C1` has an intrinsic clearance of under 12 mL/min/g protein (human liver microsomes; 1 µM).
